Values quoted from earlier work that unrelated publications cite.
Protocols differ between the studies behind these lines. ± gives the spread as reported.

| Compound | tested on | test | test system | conditions | measurement | result |
| --- | --- | --- | --- | --- | --- | --- |
| CO[C@@H]1[C@@H]2OP(=O)(O)OC[C@H]2O[C@H]1n1c(Sc2ccc(Cl)cc2)nc2c(N)ncnc21 | PDE1A | cyclic nucleotide hydrolysis, substrate or inhibitor, isothermal titration calorimetry | – | – | Km or Ki | 50.5 µM |
| Cc1ccccc1-c1cc(N2CCN(C)CC2)ncc1N(C)C(=O)C(C)(C)c1cc(C(F)(F)F)cc(C(F)(F)F)c1 | – | – | healthy volunteers, plasma | oral, dose not given, netupitant-palonosetron alone, rifampicin study | Vz/F | 2540 L |
| O=C1c2ccccc2-c2c1c1ccc([N+](=O)[O-])cc1c(=O)n2CCCN1CCOCC1 | melanoma UACC-62 | cell growth | – | – | GI50 | 380 nM |
| O=C1c2cccc3c2[C@H](CCC3)CN1[C@@H]1CN2CCC1CC2 | – | – | healthy volunteers | oral, 0.75 mg single dose, mean, added: netupitant 450 mg | Tmax | 4.69 h |
| O=C(O)CNC(=O)c1ccccc1[131I] | – | – | normal rat, liver | 60 min, added: co-injected 99mTc-1 | percent injected dose | 0.6 ± 0.3 %ID |
| C[C@@H](Oc1cc(-c2cnn(C3CCNCC3)c2)cnc1N)c1c(Cl)ccc(F)c1Cl | hiPSC-derived cardiomyocytes | contractility | – | 72 h | lowest effective concentration | 1.91 µM |
| O=C1c2ccccc2-c2c1c1ccc([N+](=O)[O-])cc1c(=O)n2C[C@H](O)CO | NCI-60 panel mean | cell growth | – | – | GI50 | 156 ± 61 nM |
| C[C@@H](c1nc(-c2ccc(C#N)cc2)cs1)[C@](O)(Cn1cncn1)c1cc(F)ccc1F | CYP1A2 | enzyme activity, inhibitor | – | added: phenacetin O-deethylation | IC50 | 38.5 µM |
| COc1cc2nccc(Oc3ccc(NC(=O)C4(C(=O)Nc5ccc(F)cc5)CC4)cc3)c2cc1OC | hiPSC-derived cardiomyocytes | contractility | – | 72 h | lowest effective concentration | 91.1 µM |
| O=C1c2ccccc2-c2c1c1ccc([N+](=O)[O-])cc1c(=O)n2CCCn1ccnc1 | melanoma UACC-62 | cell growth | – | – | GI50 | 12 nM |
| CC(C)(C)c1nc(-c2cccc(NS(=O)(=O)c3c(F)cccc3F)c2F)c(-c2ccnc(N)n2)s1 | hiPSC-derived cardiomyocytes | contractility | – | 72 h | lowest effective concentration | 36.8 µM |
| O=C(Nc1ncnc2c1ncn2[C@@H]1O[C@@H]2COP(=O)(O)OC2C1O)c1ccccc1 (stereo in doubt) | PDE1C | cyclic nucleotide hydrolysis, substrate or inhibitor, isothermal titration calorimetry | – | – | Km or Ki | 323 µM |

A few entries again:
| Compound | tested on | test | test system | conditions | measurement | result |
| --- | --- | --- | --- | --- | --- | --- |
| O=C1c2ccccc2-c2c1c1ccc([N+](=O)[O-])cc1c(=O)n2C[C@H](O)CO | NCI-60 panel mean | cell growth | – | – | GI50 | 156 ± 61 nM |
